Published values collected from several papers.
Parts stem from different laboratories: compare values within a part only. Substitutions count along the parent as printed.

Sample 1 — target: NFE2L1, bZIP domain (human); method: DHFR protein complementation; sample: yeast; reference: wild-type JUN-FOS pair; reading: higher = stronger binding
Notes: single substitutions, most at no-binding floor
Starting sequence: JUN, bZIP domain (human); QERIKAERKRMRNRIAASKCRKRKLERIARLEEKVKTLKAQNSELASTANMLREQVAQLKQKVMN; partner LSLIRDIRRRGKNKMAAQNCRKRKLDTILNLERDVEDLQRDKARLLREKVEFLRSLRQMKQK
`K39R` has a binding fitness of -1.34 natural log.
`Q41G` gave a binding fitness of -1.52 natural log.
`R53I` gave a binding fitness of -1.42 natural log.
With `R30N` the binding fitness was -1.29 natural log.
`K36T` has a binding fitness of -1.52 natural log.
`A40S` has a binding fitness of -1.22 natural log.
The binding fitness of `T48Y` is reported as -1.35 natural log.
The binding fitness of `K39M` is reported as -1.5 natural log.

Sample 2 — method: protein binding microarray; form: double-stranded DNA, one strand shown; sample: in vitro; concentration: not given; reference: not given; reading: higher = stronger binding
Target: Histone acetyltransferase KAT6A, winged helix 2, GST fusion (KAT6A, Homo sapiens, UniProt Q92794, residues 85-181)
Notes: 8-mer, flanks averaged, mean of 2 arrays, mostly near background
Target sequence (chain): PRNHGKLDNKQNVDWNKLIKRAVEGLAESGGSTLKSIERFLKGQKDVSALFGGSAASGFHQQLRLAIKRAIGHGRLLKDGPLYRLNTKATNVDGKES
`CACCTAAG` has an E-score of -0.109.
The E-score of `CCGTTTAC` is reported as 0.0776.
The E-score of `GCGAATCC` is reported as -0.0762.
The E-score of `CCATTCAG` is reported as -0.0899.
`CAGTAGAA` has an E-score of -0.0306.
With `CCCTCACC` the E-score was 0.128.
`GACAGACC` gave an E-score of -0.06.
The E-score of `ACGGCATG` is reported as 0.0669.

Mixed results
Under “adverse event incidence”, CC(C)n1cnc(-c2ccc(F)cc2)c1-c1ncc(C(=O)Nc2ccc(N3CCN(C)CC3)cc2)[nH]1 is recorded as 0% (phase 2a trial, measured: appendicitis; idiopathic pulmonary fibrosis patients; dose not given, grade 4, all arms pooled).
Under “terminal elimination rate constant”, COc1ccc(-c2c(Nc3ccccn3)[nH]c3c(C4=CCCCC4)c(-c4ccccc4)nn3c2=O)cc1 is recorded as 4.46e-06 s⁻¹ (LC-MS/MS non-compartmental; human, plasma; oral, 50 mg once daily, cycle 1).

Some of these lines once more (sample 2):
The E-score of `CCATTCAG` is reported as -0.0899.
`CAGTAGAA` has an E-score of -0.0306.
With `CCCTCACC` the E-score was 0.128.
